Assay results pooled from the literature.
Every numbered part comes from another study and shows a few of its results, in no order. Values joined by “and” are separate records of one study, mostly repeats; a detail may differ.
UniProt Q16539, sequence (whole entry, looked up): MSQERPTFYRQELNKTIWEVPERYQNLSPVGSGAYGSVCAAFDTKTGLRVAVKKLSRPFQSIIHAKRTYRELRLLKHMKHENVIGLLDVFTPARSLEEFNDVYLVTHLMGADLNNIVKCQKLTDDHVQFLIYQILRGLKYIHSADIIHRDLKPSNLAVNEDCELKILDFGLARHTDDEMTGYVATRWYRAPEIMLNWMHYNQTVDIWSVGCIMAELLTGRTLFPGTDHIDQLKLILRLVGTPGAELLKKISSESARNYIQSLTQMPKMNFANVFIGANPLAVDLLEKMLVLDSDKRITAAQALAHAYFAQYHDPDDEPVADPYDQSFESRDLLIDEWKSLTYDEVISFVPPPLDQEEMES
UniProt Q02750, sequence (whole entry, looked up): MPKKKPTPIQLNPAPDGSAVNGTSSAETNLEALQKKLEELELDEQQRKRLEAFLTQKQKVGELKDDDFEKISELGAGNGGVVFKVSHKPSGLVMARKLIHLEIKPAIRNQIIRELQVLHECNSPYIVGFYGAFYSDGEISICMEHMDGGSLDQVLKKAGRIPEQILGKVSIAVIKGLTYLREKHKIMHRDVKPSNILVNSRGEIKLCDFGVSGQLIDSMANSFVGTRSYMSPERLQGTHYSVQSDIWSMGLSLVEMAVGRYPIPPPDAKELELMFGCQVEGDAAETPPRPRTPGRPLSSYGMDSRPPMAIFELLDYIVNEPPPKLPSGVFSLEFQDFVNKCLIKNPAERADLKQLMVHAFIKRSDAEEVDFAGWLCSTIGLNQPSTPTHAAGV
UniProt Q9HBY8, sequence (whole entry, looked up): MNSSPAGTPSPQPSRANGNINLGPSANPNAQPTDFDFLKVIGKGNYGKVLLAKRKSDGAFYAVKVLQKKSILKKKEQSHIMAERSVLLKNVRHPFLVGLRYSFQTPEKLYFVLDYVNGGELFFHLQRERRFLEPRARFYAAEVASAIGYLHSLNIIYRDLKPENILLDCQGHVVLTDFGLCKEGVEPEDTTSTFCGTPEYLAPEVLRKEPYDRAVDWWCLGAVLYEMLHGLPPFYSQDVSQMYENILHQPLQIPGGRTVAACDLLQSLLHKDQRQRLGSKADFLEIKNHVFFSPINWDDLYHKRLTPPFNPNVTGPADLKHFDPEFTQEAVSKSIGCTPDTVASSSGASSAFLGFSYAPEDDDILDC
UniProt P32298, sequence (whole entry, looked up): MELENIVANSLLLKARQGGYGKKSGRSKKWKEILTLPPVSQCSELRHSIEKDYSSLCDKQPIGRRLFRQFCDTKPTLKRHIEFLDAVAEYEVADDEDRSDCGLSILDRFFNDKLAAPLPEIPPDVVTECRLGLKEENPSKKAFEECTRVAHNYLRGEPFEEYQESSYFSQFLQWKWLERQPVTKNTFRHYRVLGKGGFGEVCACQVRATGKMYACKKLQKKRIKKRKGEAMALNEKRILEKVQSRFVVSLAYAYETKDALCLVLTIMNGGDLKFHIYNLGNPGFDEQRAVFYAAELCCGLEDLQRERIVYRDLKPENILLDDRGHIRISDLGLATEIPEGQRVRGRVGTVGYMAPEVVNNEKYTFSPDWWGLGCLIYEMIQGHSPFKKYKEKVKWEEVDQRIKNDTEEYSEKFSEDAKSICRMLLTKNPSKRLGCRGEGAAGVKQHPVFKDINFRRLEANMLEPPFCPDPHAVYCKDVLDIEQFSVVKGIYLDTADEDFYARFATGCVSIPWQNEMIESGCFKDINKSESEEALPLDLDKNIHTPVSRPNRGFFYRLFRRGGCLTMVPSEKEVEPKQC
UniProt Q9HAZ1, sequence (whole entry, looked up): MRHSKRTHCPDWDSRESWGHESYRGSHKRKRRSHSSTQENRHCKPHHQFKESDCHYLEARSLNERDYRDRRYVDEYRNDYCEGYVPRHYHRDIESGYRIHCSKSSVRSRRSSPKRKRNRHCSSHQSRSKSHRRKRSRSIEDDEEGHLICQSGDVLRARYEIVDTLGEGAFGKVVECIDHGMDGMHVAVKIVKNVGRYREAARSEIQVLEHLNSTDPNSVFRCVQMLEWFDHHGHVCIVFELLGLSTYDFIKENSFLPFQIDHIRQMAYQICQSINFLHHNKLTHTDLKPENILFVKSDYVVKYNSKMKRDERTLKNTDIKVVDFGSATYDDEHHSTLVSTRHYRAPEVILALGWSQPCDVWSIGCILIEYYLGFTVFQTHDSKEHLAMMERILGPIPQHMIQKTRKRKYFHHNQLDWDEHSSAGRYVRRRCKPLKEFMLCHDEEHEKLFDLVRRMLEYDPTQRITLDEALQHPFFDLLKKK
UniProt P29376, sequence (whole entry, looked up): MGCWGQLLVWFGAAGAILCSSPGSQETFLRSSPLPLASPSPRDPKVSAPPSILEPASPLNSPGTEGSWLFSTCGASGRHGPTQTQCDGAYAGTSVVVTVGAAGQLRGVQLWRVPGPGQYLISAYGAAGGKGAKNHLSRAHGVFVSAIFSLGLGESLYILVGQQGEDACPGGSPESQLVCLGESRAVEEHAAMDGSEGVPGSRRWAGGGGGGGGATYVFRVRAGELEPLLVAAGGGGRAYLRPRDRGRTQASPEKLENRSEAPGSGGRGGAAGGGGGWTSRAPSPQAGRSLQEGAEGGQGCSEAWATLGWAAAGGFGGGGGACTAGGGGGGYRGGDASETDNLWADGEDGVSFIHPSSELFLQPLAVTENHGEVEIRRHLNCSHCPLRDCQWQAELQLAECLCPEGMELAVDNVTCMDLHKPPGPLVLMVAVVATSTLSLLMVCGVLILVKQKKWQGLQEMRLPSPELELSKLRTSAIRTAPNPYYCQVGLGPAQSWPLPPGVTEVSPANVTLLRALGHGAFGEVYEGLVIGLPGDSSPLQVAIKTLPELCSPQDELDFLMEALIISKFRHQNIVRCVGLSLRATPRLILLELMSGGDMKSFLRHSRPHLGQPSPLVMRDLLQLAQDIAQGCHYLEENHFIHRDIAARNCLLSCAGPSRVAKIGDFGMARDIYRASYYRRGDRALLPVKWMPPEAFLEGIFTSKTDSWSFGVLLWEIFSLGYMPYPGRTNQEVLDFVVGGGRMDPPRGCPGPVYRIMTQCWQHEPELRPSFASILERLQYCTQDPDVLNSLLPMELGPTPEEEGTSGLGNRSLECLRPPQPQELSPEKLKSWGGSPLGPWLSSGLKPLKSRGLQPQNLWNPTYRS
UniProt Q6P2M8, sequence (whole entry, looked up): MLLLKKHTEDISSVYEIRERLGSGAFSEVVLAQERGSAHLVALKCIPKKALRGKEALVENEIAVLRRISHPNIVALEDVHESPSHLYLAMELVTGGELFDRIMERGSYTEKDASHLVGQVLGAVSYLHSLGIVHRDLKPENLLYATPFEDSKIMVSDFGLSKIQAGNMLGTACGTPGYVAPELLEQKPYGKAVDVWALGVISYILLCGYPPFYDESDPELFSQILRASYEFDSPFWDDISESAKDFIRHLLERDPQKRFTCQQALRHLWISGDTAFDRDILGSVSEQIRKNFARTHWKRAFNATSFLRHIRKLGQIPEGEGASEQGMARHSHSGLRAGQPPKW
UniProt P49761, sequence (whole entry, looked up): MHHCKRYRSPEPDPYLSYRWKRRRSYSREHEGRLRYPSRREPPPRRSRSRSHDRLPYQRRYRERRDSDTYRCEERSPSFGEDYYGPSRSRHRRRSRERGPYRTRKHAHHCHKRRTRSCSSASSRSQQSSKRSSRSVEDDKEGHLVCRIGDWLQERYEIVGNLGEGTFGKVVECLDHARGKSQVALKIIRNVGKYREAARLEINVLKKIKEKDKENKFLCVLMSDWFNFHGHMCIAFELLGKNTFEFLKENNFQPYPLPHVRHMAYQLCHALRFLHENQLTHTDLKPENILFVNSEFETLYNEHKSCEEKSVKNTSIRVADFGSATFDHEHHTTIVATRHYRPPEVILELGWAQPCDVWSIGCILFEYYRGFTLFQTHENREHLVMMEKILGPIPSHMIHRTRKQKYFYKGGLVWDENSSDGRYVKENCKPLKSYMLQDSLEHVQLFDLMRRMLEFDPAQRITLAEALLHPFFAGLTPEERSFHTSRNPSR
UniProt P50750, sequence (whole entry, looked up): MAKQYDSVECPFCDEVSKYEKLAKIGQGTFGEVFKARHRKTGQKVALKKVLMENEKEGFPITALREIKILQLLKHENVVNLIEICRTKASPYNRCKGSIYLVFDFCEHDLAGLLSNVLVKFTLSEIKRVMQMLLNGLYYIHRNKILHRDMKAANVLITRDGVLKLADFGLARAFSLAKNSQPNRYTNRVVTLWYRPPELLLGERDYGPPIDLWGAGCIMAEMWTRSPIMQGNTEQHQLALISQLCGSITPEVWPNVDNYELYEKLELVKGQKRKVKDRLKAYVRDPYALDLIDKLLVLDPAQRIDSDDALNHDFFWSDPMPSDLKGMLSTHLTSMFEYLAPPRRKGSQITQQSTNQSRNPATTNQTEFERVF
UniProt P31751, sequence (whole entry, looked up): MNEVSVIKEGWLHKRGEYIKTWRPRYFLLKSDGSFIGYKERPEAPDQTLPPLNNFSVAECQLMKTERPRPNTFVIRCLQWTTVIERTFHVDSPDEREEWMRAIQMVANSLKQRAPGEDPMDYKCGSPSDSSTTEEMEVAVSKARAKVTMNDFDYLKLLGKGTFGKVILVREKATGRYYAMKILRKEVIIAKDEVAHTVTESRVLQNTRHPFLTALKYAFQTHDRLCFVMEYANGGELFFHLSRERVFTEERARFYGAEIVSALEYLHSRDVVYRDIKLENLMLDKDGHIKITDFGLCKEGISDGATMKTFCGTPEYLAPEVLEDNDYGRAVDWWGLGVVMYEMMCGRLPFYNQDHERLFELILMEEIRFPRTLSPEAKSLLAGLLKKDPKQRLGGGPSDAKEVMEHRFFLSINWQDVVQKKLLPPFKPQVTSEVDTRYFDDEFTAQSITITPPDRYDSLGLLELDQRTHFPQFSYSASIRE

Study 1
SMILES: Nc1cccc(-c2cc3c(Oc4cccc(O)c4)ncnc3[nH]2)c1
Observed: enzyme activity
Mode: inhibitor
Tested at: 0.5 µM
Reference: control
Measurement: remaining activity
target = MAPK14 (Homo sapiens, UniProt Q16539); result = 98.1%
target = PNCK (Homo sapiens, UniProt Q6P2M8); result = 98.2%
target = MET (Homo sapiens, UniProt P08581); result = 110%
target = DCLK2 (Homo sapiens, UniProt Q8N568); result = 89%
target = PAK3 (Homo sapiens, UniProt O75914); result = 79.8%
target = MARK2 (Homo sapiens, UniProt Q7KZI7); result = 79%
target = DDR2 (Homo sapiens, UniProt Q16832); result = 29.3%
target = Cyclin-dependent kinase 9, with cyclin K (CDK9, Homo sapiens, UniProt P50750); result = 58.4%
target = CDC42BPB (Homo sapiens, UniProt Q9Y5S2); result = 93.5%
target = PLK3 (Homo sapiens, UniProt Q9H4B4); result = 95.7%
target = RPS6KA4 (Homo sapiens, UniProt O75676); result = 103%
target = CLK3 (Homo sapiens, UniProt P49761); result = 74%
target = MINK1 (Homo sapiens, UniProt Q8N4C8); result = 34.7%
target = Cyclin-dependent kinase 1, with cyclin A (CDK1, Homo sapiens, UniProt P06493); result = 99.3%
target = CAMK4 (Homo sapiens, UniProt Q16566); result = 94.9%
target = TXK (Homo sapiens, UniProt P42681); result = 24.5%
target = KDR (Homo sapiens, UniProt P35968); result = 6.7%
target = GRK4 (Homo sapiens, UniProt P32298); result = 94.7%
target = MARK4 (Homo sapiens, UniProt Q96L34); result = 68.8%
target = MAPK1 (Homo sapiens, UniProt P28482); result = 114%
target = ROCK1 (Homo sapiens, UniProt Q13464); result = 94.1%
target = CLK4 (Homo sapiens, UniProt Q9HAZ1); result = 104%
target = NEK3 (Homo sapiens, UniProt P51956); result = 57.5%
target = AKT2 (Homo sapiens, UniProt P31751); result = 109%
target = MAP2K1 (Homo sapiens, UniProt Q02750); result = 76.3%

Study 2
Organism: Plasmodium berghei
Mode: inhibitor
Cells: Huh-7
Strain: liver stage
Tested at: 10 µM
Time: 24 h
Reference: untreated control
Measurement: infection rate
Structure (SMILES) = CC(C)[C@@H]1CC[C@@H](C)C[C@H]1O; result = 110%
Structure (SMILES) = Cc1ccc(C)c(OCCCC(C)(C)C(=O)O)c1; result = 122%
Structure (SMILES) = COc1ccccc1OCC(O)COC(N)=O (centres unmarked); result = 100%
Structure (SMILES) = CC1CC(OC(=O)C(O)c2ccccc2)CC(C)(C)N1C (centres unmarked); result = 92.7%
Structure (SMILES) = CC1(C)O[C@@H]2C[C@H]3[C@@H]4C[C@H](F)C5=CC(=O)C=C[C@]5(C)[C@H]4[C@@H](O)C[C@]3(C)[C@]2(C(=O)CO)O1; result = 104%
Structure (SMILES) = NC(N)=Nc1nc(CSCC/C(N)=N/S(N)(=O)=O)cs1; result = 83%
Structure (SMILES) = NCCCC[C@H](N[C@@H](CCc1ccccc1)C(=O)O)C(=O)N1CCC[C@H]1C(=O)O; result = 107%
Structure (SMILES) = O=c1[nH]c(=O)n([C@H]2C[C@H](O)[C@@H](CO)O2)cc1F; result = 43.8%
Structure (SMILES) = Nc1nc(=O)c2nc(CNc3ccc(C(=O)N[C@@H](CCC(=O)O)C(=O)O)cc3)cnc2[nH]1; result = 113%

Study 3
Structure (SMILES): O=C(NC[C@@H]1[C@H]2CN(C(=O)OCc3cc(C(F)(F)F)cc(C(F)(F)F)c3)C[C@@H]12)c1ccc2[nH]nnc2c1
Observed: cell-free assay
Technique: competition with immobilised ligand
Tested at: 1 µM
Measurement: remaining binding
target = FLT1 (Homo sapiens, UniProt P17948); result = 82%
target = NEK4 (Homo sapiens, UniProt P51957); result = 84%
target = MAPKAPK5 (Homo sapiens, UniProt Q8IW41); result = 86%
target = PIP4K2B (Homo sapiens, UniProt P78356); result = 100%
target = PDGFRB (Homo sapiens, UniProt P09619); result = 90%
target = Aurora kinase B (AURKB, Homo sapiens, UniProt Q96GD4); result = 84%
target = Tyrosine-protein kinase ABL1, phosphorylated (ABL1, Homo sapiens, UniProt P00519); result = 100%
target = SGK2 (Homo sapiens, UniProt Q9HBY8); result = 66%
target = FLT3 (Homo sapiens, UniProt P36888, ITD); result = 83%
target = LTK (Homo sapiens, UniProt P29376); result = 98%
target = FLT3 (Homo sapiens, UniProt P36888, D835Y); result = 100%

Study 4
Cell line: mouse MPNST tumor cells
Technique: high-content nuclear imaging
Measured: cell number
Tested at: 10 µM
Time: 12 h
Notes: mean of 2 replicates
Reference: plate mean
Reading: higher = more cells
Measurement: nuclei count
Structure (SMILES) = Cc1ccc(S(=O)(=O)OCC(=O)Nc2ccc(C(=O)O)c(O)c2)cc1; result = 1.71 z-score
Structure (SMILES) = O=C(O)CCNc1cc(N2CCc3ccccc3CC2)nc(-c2ccccn2)n1; result = 0.452 z-score and -5.67 z-score
Structure (SMILES) = C[C@H](NC[C@H](O)CP(=O)(O)Cc1ccccc1)c1ccc(Cl)c(Cl)c1; result = 1.79 z-score
Structure (SMILES) = CCN(CC)C(=O)/C(C#N)=C/c1cc(O)c(O)c([N+](=O)[O-])c1; result = 2.16 z-score and 2.27 z-score
Structure (SMILES) = O=C(/C=C/N1C[C@H]2C[C@@H]1CN2c1ccccn1)c1ccccc1O; result = -0.507 z-score
Structure (SMILES) = Cn1cc(-c2[nH]c3cc(NC(=O)[C@H](N)C4CCCCC4)cc4c3c2C=NNC4=O)cn1; result = -2.38 z-score
Structure (SMILES) = Oc1ccc(OCc2ccccc2)cc1; result = -2.98 z-score
Structure (SMILES) = CCOC(=O)O[C@]1(C(=O)OCCl)CC[C@H]2[C@@H]3CCC4=CC(=O)C=C[C@]4(C)[C@H]3[C@@H](O)C[C@@]21C; result = 1.38 z-score
Structure (SMILES) = CC1CCN(CCCC(=O)c2ccc(F)cc2)CC1; result = 0.577 z-score
Structure (SMILES) = CS(=O)(=O)c1cccc(CNc2nc(Nc3ccc4c(c3)CCC(=O)N4)ncc2C(F)(F)F)c1; result = -1.38 z-score
Structure (SMILES) = O=C(O)C1(C(=O)O)CCC1.[NH2-].[NH2-].[Pt+2]; result = 1.08 z-score

For quick reference, copied from above (study 3):
target = FLT1 (Homo sapiens, UniProt P17948); result = 82%
target = NEK4 (Homo sapiens, UniProt P51957); result = 84%
target = MAPKAPK5 (Homo sapiens, UniProt Q8IW41); result = 86%
target = PIP4K2B (Homo sapiens, UniProt P78356); result = 100%
target = PDGFRB (Homo sapiens, UniProt P09619); result = 90%
target = Aurora kinase B (AURKB, Homo sapiens, UniProt Q96GD4); result = 84%
target = Tyrosine-protein kinase ABL1, phosphorylated (ABL1, Homo sapiens, UniProt P00519); result = 100%
target = SGK2 (Homo sapiens, UniProt Q9HBY8); result = 66%
